Published values of several laboratories.
Numbered parts are unrelated; each lists some results of a single study.

Sample 1
Target: RNA binding protein fox-1 homolog 2, RRM domain, GST-SBP tag (RBFOX2, Homo sapiens, UniProt O43251-10, residues 100-194)
Method: RNA Bind-n-Seq
Molecule type: RNA
Medium: in vitro
Concentration: 365 nM
Setting: natural RNA segment, single round, ends assumed
Baseline: no-protein control
Reading: higher = stronger binding
Measurement: RBNS enrichment (R)
Target sequence (chain): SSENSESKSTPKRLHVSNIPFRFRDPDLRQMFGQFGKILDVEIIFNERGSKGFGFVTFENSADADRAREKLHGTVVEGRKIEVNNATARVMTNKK
Sequence = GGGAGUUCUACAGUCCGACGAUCGAGUAAGCUCUGUGCGAGAGAUCUGUGAAUAACCAGAUAACCCCAGCUGCCGUUAACCUUUUCACCAGGUGCCACAGUAAUAUUUCUGGUUUUUAGCCCUUUCUCUGCACUGGAAUUCUCGGGUGCCAA; value = 0.301
Sequence = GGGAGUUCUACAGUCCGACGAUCCAUUAUAACAUUUGCUGUUUUAAAAUUUUUGCUAUUUUUUCACAAACUGAUAUUCAAAAUAUUAAACAUUUGUUAUUUUGUAUAAACCUUUAAGUAAAAAUAUGCUGUUUUGGAAUUCUCGGGUGCCAA; value = 0.639
Sequence = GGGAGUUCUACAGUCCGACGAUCGGGGCCCAGCUUCCAAUAGUGUCAGAAGCAACUUGUGGCUUUGCCUUGGUUGUGAGAUGGGUACAUUCCAAAGGAGCAGCCUGGGGGAGGGGGCAGGCUCAGCCAGCCCUUGGAAUUCUCGGGUGCCAA; value = 0.322
Sequence = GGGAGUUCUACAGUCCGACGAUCGUCCCAGGGCAGCCGAGGCCAGCCCUGCCUGGGUUGGAGAAACUGACUUUGUGCCUUAAGUCUACUCAGUGCCUGGUGAAGCCACCCUCAGCCCUUCACAGGCCUGAACCUGGAAUUCUCGGGUGCCAA; value = 0.364
Sequence = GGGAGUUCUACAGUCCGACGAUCUCUACCCGGGAAGGAACAUAUGACGACAUGCUCCUCCCAUGUCCCCUGAUGGUGUCUGUUCCCACAAUAUCCUUCUAGUCUGCAUCGUGAAGUGGCUUAGGCCAAAGCUUUGGAAUUCUCGGGUGCCAA; value = 1.75
Sequence = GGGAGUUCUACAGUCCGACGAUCAGGAAGAAACAAGCCCCCAACACAAGGCUCUGAUACUACUGGUAAAUGUAGGAGAGAAUUAAGAAUCUGUUAAUUAAAAUCCAAACAGAGCUUAUUUCAGUAGUCAAGUUUGGAAUUCUCGGGUGCCAA; value = 0.281
Sequence = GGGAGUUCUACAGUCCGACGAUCAAAAGUGAGUUUGGCCAGGAGGAAUGAGACGUCUCCUGAAAUAGGAACACCGGAACAUCAUGCUCACCUGCCAUCACUAUGCAUCCAGUUCCCACAGCUUGUGUCGUGAAUGGAAUUCUCGGGUGCCAA; value = 1.19
Sequence = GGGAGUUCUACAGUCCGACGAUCAAUUGUACCUGUAAGAAAAUCAUACAACUCAGCAUCCAGUUGGCUUUUUAAGAAUUCUGUACUUCCAAUUUAUAAUGAAUACUUUCUUAGAUUUUAGGUAGGAGGGGAGCUGGAAUUCUCGGGUGCCAA; value = 5.15

Sample 2
Target: Interferon regulatory factor 3, full length, phosphomimetic (IRF3, Homo sapiens, UniProt Q14653, residues 1-427, S386D/S396D/S398D/S402D/T404D/S405D)
Method: protein-binding microarray
Molecule type: double-stranded DNA, one strand shown
Medium: in vitro
Concentration: 2540 nM top
Setting: 60-bp whole probe
With: salmon DNA 0.4 mg/ml
Baseline: random background probes
Reading: higher = stronger binding
Measurement: fitted relative affinity
All sequences stand within: GCCTAGCAC … GTCTTGATTCGCTTGACGCTGCTG
Construct (chain): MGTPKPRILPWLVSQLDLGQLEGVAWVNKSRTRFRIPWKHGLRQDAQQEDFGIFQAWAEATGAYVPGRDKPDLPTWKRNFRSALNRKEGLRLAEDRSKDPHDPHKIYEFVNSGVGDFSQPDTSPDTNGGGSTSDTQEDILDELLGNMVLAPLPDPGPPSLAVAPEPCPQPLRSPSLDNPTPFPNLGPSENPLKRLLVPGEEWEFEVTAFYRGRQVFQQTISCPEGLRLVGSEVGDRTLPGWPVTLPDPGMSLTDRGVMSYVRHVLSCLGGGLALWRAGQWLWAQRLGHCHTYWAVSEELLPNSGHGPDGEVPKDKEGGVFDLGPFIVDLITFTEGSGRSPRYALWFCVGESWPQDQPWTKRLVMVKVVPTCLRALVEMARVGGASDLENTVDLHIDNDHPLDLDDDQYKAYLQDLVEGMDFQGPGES
Sequence = TTCCTTTGCTTTCTCCCAAGGTGCTAG; value = 1.57 z-score
Sequence = GCTTTCCCCTTGGACTCTTTGTGCTAG; value = 2.55 z-score
Sequence = TTAGGTTTCGGTATTGGTTAGTGCTAG; value = 8.04 z-score
Sequence = TTAGGATTCGACTTTCGGTTAGTGCTA; value = 1.89 z-score
Sequence = TAAGGTATCGGGTATCGGTTAGTGCTA; value = 1.86 z-score
Sequence = TTTTTTTTATCAATCATTTTGTGCTAG; value = 1.43 z-score
Sequence = TTAGGTTTCCTTTTCCTTTAGTGCTAG; value = 11.9 z-score
Sequence = TTAGGTTCCCTTTTCCTTTTGTGCTAG; value = 8.22 z-score
Sequence = AACGGTATCCTTATCCTGACGTGCTAG; value = 4.93 z-score
Sequence = TTCGGACTGGGGACTGGGTTAGTGCTA; value = -0.847 z-score
Sequence = TTAGGTCTCGGTTTCGTTTAGTGCTAG; value = 4.26 z-score
Sequence = GACGATATCCTTCTCCTGACGTGCTAG; value = 3.77 z-score

Sample 3
Target: Prothrombin, mature alpha-thrombin (F2, Homo sapiens, UniProt P00734)
Method: aptamer microarray, sandwich
Molecule type: DNA with 2'F-ANA
Medium: in vitro
Concentration: 200 nM
Setting: whole 15-mer aptamer, many near background
With: Cy3 exosite-II aptamer, 400 nM
Reading: higher = stronger binding
Measurement: mean fluorescence intensity
Sequence: GGTTGGTGTGGTTGG
Modification = 2'F-ANA at 2 6 9 10 12 13; value = 122 a.u.
Modification = 2'F-ANA at 1 5 6 7 8 9 12 13; value = 78.7 a.u.
Modification = 2'F-ANA at 3 4 7 8 10 15; value = 322 a.u.
Modification = 2'F-ANA at 1 7 8 9 12 13 14; value = 73.4 a.u.
Modification = 2'F-ANA at 2 7 9 10 12 13 14 15; value = 91.4 a.u.
Modification = 2'F-ANA at 1 7 9 11 14 15; value = 99 a.u.
Modification = 2'F-ANA at 2 4 5 10 13 14; value = 46.3 a.u.
Modification = 2'F-ANA at 1 3 7 9; value = 314 a.u.
Modification = 2'F-ANA at 1 2 4 5 6 7 8 9 11 14 15; value = 49.4 a.u.
Modification = 2'F-ANA at 1 3 6 8 10 13 15; value = 69.7 a.u.
Modification = 2'F-ANA at 2 3 4 6 9 11 12 13 15; value = 471 a.u.
Modification = 2'F-ANA at 1 2 3 6 8 10 11 13; value = 61 a.u.
Modification = 2'F-ANA at 2 3 4 5 6 7 13 14 15; value = 50 a.u.
Modification = 2'F-ANA at 2 3 4 6 9 10; value = 228 a.u.
Modification = 2'F-ANA at 4 5 7 9 10 11 12 14; value = 51.3 a.u.

Sample 4
Target: Hepatocyte nuclear factor 3-alpha (Foxa1, Mus musculus, UniProt P35582, residues 1-468, full length assumed)
UniProt P35582, sequence (whole entry, looked up): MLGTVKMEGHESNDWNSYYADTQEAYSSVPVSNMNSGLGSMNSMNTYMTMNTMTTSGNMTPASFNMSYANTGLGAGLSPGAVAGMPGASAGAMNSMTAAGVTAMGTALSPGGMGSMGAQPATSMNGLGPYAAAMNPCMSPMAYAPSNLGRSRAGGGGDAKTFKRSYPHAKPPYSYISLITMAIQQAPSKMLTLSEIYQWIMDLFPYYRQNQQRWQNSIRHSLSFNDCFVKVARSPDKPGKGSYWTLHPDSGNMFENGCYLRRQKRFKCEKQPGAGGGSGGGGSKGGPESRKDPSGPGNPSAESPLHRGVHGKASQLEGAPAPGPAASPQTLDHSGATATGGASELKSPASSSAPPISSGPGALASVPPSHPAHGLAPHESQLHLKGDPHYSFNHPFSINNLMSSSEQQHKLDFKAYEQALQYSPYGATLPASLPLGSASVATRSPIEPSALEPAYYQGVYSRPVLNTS
Method: EMSA with sequencing
Molecule type: double-stranded DNA, one strand shown
Medium: in vitro
Concentration: 10 and 20 nM
Setting: whole designed probe, mean of two concentrations, ends assumed
Baseline: negative control set to 0
Reading: higher = stronger binding
Measurement: normalised bound fraction
Sequence = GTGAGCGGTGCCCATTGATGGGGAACACATTCTTATAACCTATATGACATTATATTAAATTCCATTTAAAACCGTAGCATAAGAAGCATTGTATCTGGCACAAAAATACAAAGGGATTTAGATTACTGAGAGACAAGATAAACTATATACTAGAACTAAAAGCTCTATAAAATATTTAATGAAAAATTCTGTAGTAATTTTATGTGAGGTTTTTTAAACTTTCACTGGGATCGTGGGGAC; value = 0.0387 ratio
Sequence = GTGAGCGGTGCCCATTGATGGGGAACACTCAAATTCACTTGGGACTGATGGTTTCATTTCTCTTCTCCCACACTAGGTGGCCAGACCAGCAAGACTTAAGCTTTGTTTAACTTGTCAATGTTTACAGAAGTGCAGGTTGCCAAAATTCTCTCTGCACCCTGACTCCCACTCCCTTTTTTAATTTTTTATTTTATTTTTTGAAATGGAGTCTTGCTCTGTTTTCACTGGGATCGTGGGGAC; value = 0.377 ratio
Sequence = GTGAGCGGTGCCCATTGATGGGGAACCATTAGAGTCAAAGTTGTTAAGGGGAGCTAGTCATAGCTACCACGTGGCCAGGCATGTGGAAATGAATCATCACCAGACACCAGGCACATAAAGTAAATAGATGAATAATGCTGACAACCTAGTTCATAGTGACACACTACTTGAGATATATAGAATAACATTATTACCCAGTAAGTATGTGAACATTCCGATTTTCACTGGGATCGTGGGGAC; value = 0.428 ratio
Sequence = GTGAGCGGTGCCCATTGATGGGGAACTGAGGCCTGAGGTGGCAGTGGGGAGGAGCTCATGGGGAGCTTAATTGTACCATCCTGGTTATTACTCATTTCACAAACATTTACATGTCTCAGTGTTGACTTAGTAGTGACGACTGCTGGACCTCGTGCATCAAAGATTTGAGGTGAGGGAACACTTAAAGAATTGGCAGTAGCCACAGCATGAACCAACGGCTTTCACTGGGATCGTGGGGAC; value = 0.32 ratio
Sequence = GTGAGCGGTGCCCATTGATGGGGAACTCATATGGCTCAGTTGGAATATTATTTTTTCTGTGACACTTCCTTTATTCCTCTGATCATATATAAATATTGTTCTACTCTCAGCATCTCCATATTTACTTAGTAGTATGTAGATTTCAAGCCACTCTAGAATTTTTGATTATTTATTTAGGTGTATTTGTTATCTCCTTTACTTGATTTTATGCTAGGTGGGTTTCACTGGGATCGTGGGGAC; value = 0.53 ratio
